Measurements collected from several papers.
Every numbered part comes from another study and shows a few of its results, in no order. Substitutions count along the parent as printed.

Series 1 — target: CCND3, cyclin fold, Cln2 fusion (human); method: yeast growth competition, sequencing; medium: yeast; setting: weak parent motif; relative to: not given; direction: higher = stronger binding; measurement: normalised enrichment score
Starting sequence: CDKN1A docking peptide (human); SKACRRLFGPVDS
F8Q: 0.063
G9Y: 0.309
C4Q: 0.473
C4T: 0.515
K2L: 0.349
D12Y: -0.0268

Series 2 — method: protein binding microarray; form: double-stranded DNA, one strand shown; medium: in vitro; concentration: not given; relative to: not given; direction: higher = stronger binding; measurement: E-score
Target: Histone acetyltransferase KAT6A, both winged helices, GST fusion (KAT6A, Homo sapiens, UniProt Q92794, residues 1-181)
Setting: 8-mer, flanks averaged, mean of 2 arrays, mostly near background
Construct (chain): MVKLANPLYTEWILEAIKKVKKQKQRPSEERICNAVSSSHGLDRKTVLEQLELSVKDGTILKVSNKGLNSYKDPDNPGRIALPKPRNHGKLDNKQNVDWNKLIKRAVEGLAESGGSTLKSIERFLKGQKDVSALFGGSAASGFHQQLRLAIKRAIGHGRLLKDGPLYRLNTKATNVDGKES
CCCGAGAA: 0.00825
CTATAGGA: -0.0229
AACGTTCT: 0.0468
GCTGACCA: -0.128
GACCCGTC: 0.175
ACCACTCC: -0.065
ATTTGTCC: -0.0491
CCCGATCG: 0.229

Series 3 — method: universal PBM; form: double-stranded DNA, one strand shown; medium: in vitro; concentration: 600 nM; direction: higher = stronger binding; measurement: E-score
Target: Sal-like protein 4, full length isoform A (SALL4, Homo sapiens, UniProt Q9UJQ4, residues 1-1053)
UniProt Q9UJQ4, sequence (whole entry, looked up): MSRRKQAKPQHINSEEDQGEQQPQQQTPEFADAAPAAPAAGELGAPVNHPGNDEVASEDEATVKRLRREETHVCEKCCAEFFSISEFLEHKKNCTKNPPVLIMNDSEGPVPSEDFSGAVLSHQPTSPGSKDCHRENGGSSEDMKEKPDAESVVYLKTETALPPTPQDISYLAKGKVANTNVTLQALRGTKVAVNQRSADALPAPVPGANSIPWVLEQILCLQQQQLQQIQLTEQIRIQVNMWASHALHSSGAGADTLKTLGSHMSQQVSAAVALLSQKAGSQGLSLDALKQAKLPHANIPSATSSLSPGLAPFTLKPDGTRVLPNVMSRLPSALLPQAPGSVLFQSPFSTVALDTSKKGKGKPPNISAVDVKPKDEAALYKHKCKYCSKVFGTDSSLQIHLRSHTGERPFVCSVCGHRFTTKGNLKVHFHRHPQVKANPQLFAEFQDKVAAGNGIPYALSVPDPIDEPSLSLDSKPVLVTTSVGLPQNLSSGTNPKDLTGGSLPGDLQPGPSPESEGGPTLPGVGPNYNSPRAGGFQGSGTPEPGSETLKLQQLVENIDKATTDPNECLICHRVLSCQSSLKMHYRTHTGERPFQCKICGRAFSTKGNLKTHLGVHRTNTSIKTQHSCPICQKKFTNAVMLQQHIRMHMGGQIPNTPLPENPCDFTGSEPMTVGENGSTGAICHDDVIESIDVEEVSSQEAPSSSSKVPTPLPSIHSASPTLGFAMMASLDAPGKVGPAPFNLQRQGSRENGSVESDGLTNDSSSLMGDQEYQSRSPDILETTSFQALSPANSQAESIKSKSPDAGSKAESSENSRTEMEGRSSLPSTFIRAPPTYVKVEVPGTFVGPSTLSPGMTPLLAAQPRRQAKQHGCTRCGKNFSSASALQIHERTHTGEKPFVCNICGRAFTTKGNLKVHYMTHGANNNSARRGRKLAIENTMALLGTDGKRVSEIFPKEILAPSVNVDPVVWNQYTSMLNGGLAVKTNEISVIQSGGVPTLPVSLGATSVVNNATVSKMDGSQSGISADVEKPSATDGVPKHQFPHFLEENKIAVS
Setting: 8-mer, flanks averaged, mean of replicates
ATTAAATC: 0.257
CAACACCG: -0.213
AGACGAAC: 0.0785
GAACATGC: -0.0568
CCGTAATC: -0.101
GATCGGCC: -0.225
AGAATATG: 0.304

Single results of other studies
PhoQ, residues 284 288 289 292 302 303 AGGLSV — fold induction (PhoP, residues 12 14 15 18 19 GHCSL (Escherichia coli, UniProt P23836); Sort-seq, refers to: YFP reporter; E. coli; PhoQ-PhoP variant library, added: 10 µM Mg2+; relative to: high Mg2+ state, higher = stronger signaling): 4.25

A few entries again (series 1):
C4T: 0.515
K2L: 0.349
